Assay results pooled from the literature.
Compare with care: the assays were run in different laboratories. “And” joins repeats or separate records; there may be more than shown. ± gives the spread as reported.
CSNK2A1: Casein kinase II subunit alpha (CSNK2A1, Homo sapiens, UniProt P68400)

Structure (SMILES)	target	test	setting	scale	quantity	value
COCC12C(=O)NC3C4(C(OC)CC1O)C1CC5(O)C(OC)C(O)C(OC(C)=O)(C1C5OC(=O)c1ccccc1)C3(O)C(OC)C24 (stereo not shown)	CSNK2A1	kinase activity, inhibitor, ProQinase kinase profiling	25 µM	reference: control	remaining activity	104% and 100%
O=c1c(-c2ccc(Cl)c(CN3CCOCC3)c2)coc2cc(O)ccc12	CSNK2A1	enzyme activity, inhibitor	1 µM		remaining activity	112%
C=CC(=O)N1Cc2nc(-c3cc(-c4cc(Cl)cnc4Cl)c(F)cc3F)n(-c3ccncn3)c2C1	CSNK2A1	cell-free assay, inhibitor	1 µM		inhibition	5.7%
Cc1cccc(-c2ccc3nc(NC(=O)C4CCCCC4)nn3c2)c1	CSNK2A1	enzyme activity, Dundee kinase panel	10 µM		remaining activity	106%
CC(C)=CC1OC(C)(C)C2C=C3C(=O)C(Cl)=CC(O)C3C3C(O)C4OC4C(=O)C132 (stereo not shown)	CSNK2A1	cell-free assay, competition with immobilised ligand	10 µM		remaining binding	73%
NC(=O)C[C@H]1CCc2sc3ncnc(O[C@H]4CC[C@H](N5CCOCC5)CC4)c3c21	CSNK2A1	enzyme activity, inhibitor	10 µM		inhibition	6%
COc1ccc(NC(=O)Nc2ccc3c(c2)C(=O)N(C(C)CO)CC(C)C(CN(C)Cc2ccc4c(c2)OCO4)O3)cc1 (stereo not shown)	CSNK2A1	kinase activity, KinaseProfiler	0.03 µM, species human	reference: control	remaining activity	101%
COc1cc(-n2cc3cc(F)cc(C(N)=O)c3n2)cc(Cl)c1C1CC(O)(CCO)Cc2ccccc21 (stereo not shown)	CSNK2A1	enzyme activity, inhibitor	10 µM		inhibition	0.79%
C=CC(=O)N1CCc2ccc(-n3c(=O)ccc4cnc5ccc(-c6cnn(C)c6)cc5c43)cc21	CSNK2A1	KINOMEscan	1 µM	reference: DMSO control	remaining binding	44%
Nc1ncc2c(n1)-c1c([nH]c3ccc(C4=CCOCC4)cc13)CCC2	CSNK2A1	binding, competition with immobilised ligand	1 µM		remaining binding	71%
CN1CC[C@@H](COc2cnc(C#N)cc2-c2ccn3nc(NC(=O)C4CC4)cc3c2)C1	CSNK2A1	kinase activity	1 µM, ATP15		inhibition	25%
Cc1ccc(-c2c(/C=C(\C#N)C(=O)NC(C)C)n(CCCO)c3ncnc(N)c23)cc1	CSNK2A1	cell-free assay, competition with immobilised ligand	1 µM		remaining binding	100%
Cc1cccc(-c2ccc3nc(NC(=O)C4CCCO4)nn3c2)c1 (stereo not shown)	CSNK2A1	enzyme activity, Dundee kinase panel	10 µM		remaining activity	101%
CNC1C[S+]2CC[S+]3CC[S+](C1)[Ru-4]321([N]=C=S)[n]2c3ccc(OC)cc3c3c4c(c5cc(F)c[n+]1c5c32)C(=O)NC4=O (stereo not shown)	CSNK2A1	KinomeScan	0.1 µM	reference: untreated	remaining binding	97%
COc1ccc(O)cc1-c1c[nH]c2ncc(-c3cncc(C(=O)N(C)C)c3)cc12	Casein kinase II subunit alpha, with CK2 beta (CSNK2A1, Homo sapiens, UniProt P68400)	KINOMEscan	0.2 µM		inhibition	-1.06 ± 1.45%
c1ccc2c(Nc3cc(C4CCC4)[nH]n3)nc(Nc3ccc4nc[nH]c4c3)nc2c1	CSNK2A1	enzyme activity, inhibitor	0.25 µM		remaining activity	91%
